Results of several laboratories.
A part holds a random share of what one study measured.

Sample 1 — method: RNA Bind-n-Seq; molecule type: RNA; matrix: in vitro; tested at: 365 nM; baseline: no-protein control; reading: higher = stronger binding; measurement: RBNS enrichment (R)
Target: RNA binding protein fox-1 homolog 2, RRM domain, GST-SBP tag (RBFOX2, Homo sapiens, UniProt O43251-10, residues 100-194)
Notes: natural RNA segment, single round, ends assumed
All sequences stand within: GGGAGUUCUACAGUCCGACGAUC … UGGAAUUCUCGGGUGCCAA
Target sequence (chain): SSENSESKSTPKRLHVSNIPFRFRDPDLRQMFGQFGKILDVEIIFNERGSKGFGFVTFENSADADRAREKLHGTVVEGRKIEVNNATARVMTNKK
GUCCCUGGUGGCUUCUGGAGGGAAGCUGUACCUCUAGAUACAUUUUUCUUUUCCUUCAGAGACCGUGACAGAGGGAGCUCUGUCAGCCGGAAGUUCAGGCCACCAGACGU: 0.254
CCUAUGUCCCAGCUGUCAGGGGCUCAGGGAAUCCUACCCAGCCACCUGUCCUGGGAUGGAGUGUCAGCAUCCACCCCUUGGUUGUCAUCGAGGCCGCCCUCCCAGUCCUG: 0.482
UGCAGAUGCUGUGAGAGUCUGGGGAAAGAUCACAUGGGUCGAGGGUUUCUCUACUGGUCAGGAUGCUUUUCUCAUAAGGGUCGACUUUUUUCACCAGUCACAUAAACACU: 0.323
GCCCAUGGGAUAUGUGGUGUAUAUCCUUCCAAAAAAUUAAAACGAAAAUAAAGUAGCUGCGAUUGGGUAUGUGUUUCCUGGGUUAGGGGAAGGACUCUGCCCUAUUGAGG: 1.14
GCAUAAGGGCUUUCAAAAAUUAAGUCUGUCCAGUAGAGUGAUUUUGCUUUCAUUAUUACCAAGUCAAGAGUACAACAGAGCUAGUGAACCGUAGCAGCAUGCGAAGCAGG: 4.08
UACAAACAUUUGUAUGACGUGAAUAGUUGAUGGCAUUUUUUUGUCAUGAAAAAAAUAAUGUAAAUCACAGACUUUUGCCAAAGCUCUUAUUUUUUUUCCUAAAUCUCUCC: 0.833
GACUUUCAUGUGGUAAAUAUGCAUUUGGUCUGUACUGAUCAUGGAAUAAACACAUCUCUCUUUUUUAUGCUGCUGUCUCCCUGAAAUUUCUUUGUGAAGCAACUAGGUAU: 0.567
AGGAAUCUGUUGAACACAGCGACCAGAUGACCUUCCAUUUCACCGGCGGCAGCAGUUUCAGCGUGCAGUUCCCAAACCCCAAAGCUGACCCUGCGCCCCAUUUGAAUACG: 0.201
GUCCCCAUUAAAGGACCCUCCAGAGAGGGACAGUAACUGUGCAUGAGAAGCCGCUCCCAUAAGCCUCCUCAGCCAGAUGUCAUGGGUGGAACUGGAGCUGUGUCGGGGCC: 6.47
GCAAAAUGGAGACCAAAUUCUAUCCUGUGAGGCUUUUAAUUGCACCAUAGUAUGCUCUGAGUAGCUUUACACUGCCUGGUACUGAUAGUAGUGGCUCGAUUUUUAAGAGC: 0.571
CCUCUUUUCUAUAUUUAUUUCAUAGAAAGUCUCCUGCGGGAGCGGAAAUGCAGUCCGGCCUAGGGCUCCCAGCCCUUGACUGUCCUCCUGUGAGGGCCUGAAGCUGGGCC: 0.3
AUCCCUGAUCUGAGUUGAUUUGUUUGACUGUCUUUGGGGCAAACCUUAGCAGCUCAGUAGAUUCUUCAGGAUAACAGUAAAUGGCUUAUUGUAACUUGAAACACUAUAUU: 0.331

Sample 2 — method: protein-binding microarray; molecule type: double-stranded DNA, one strand shown; matrix: in vitro; tested at: 250 nM; notes: 60-bp whole probe; together with: salmon DNA 0.4 mg/ml; baseline: random background probes; reading: higher = stronger binding; measurement: log fluorescence; all sequences stand within: GCCTAGCAC … GTCTTGATTCGCTTGACGCTGCTG
Target: Interferon regulatory factor 5, full length, phosphomimetic (IRF5, Homo sapiens, UniProt Q13568-2, residues 1-514, K96S/S451D/S453D/S456D/S462D)
GACGGACTGGGTCTCGGGCCGTGCTAG: -0.899 z-score
TCAATATTGAGACTCATACTGTGCTAG: 0.41 z-score
TTAGATATTGGGACTGGATTAGTGCTA: 0.303 z-score
TTAGATCTCAGACGGGATTAGTGCTAG: -0.0321 z-score
TCAATACTGATTTCCACACTGTGCTAG: 0.453 z-score
TCAGGTTTTACTTTCTAACTGTGCTAG: 1.66 z-score
TTAGGAATGCTTCTCCTTTAGTGCTAG: -0.355 z-score
GACGGTGTCCTACTGCTGACGTGCTAG: -0.68 z-score
GACGGACTGAGGACTGGGGACGTGCTA: -0.417 z-score
TCAGTTCTCCCTTTCAGACTGTGCTAG: 0.577 z-score
GACGGACTGGGTATCGGGGCGTGCTAG: -0.114 z-score
GACGATATCGACTATCGGGACGTGCTA: 3.32 z-score
TCATATTTAAGGCTAGGACTGTGCTAG: -0.0134 z-score
TTTTTTTTTTTTTTGGAATGGTGCTAG: 1.25 z-score
TTTTTTTTATCAATCATTTTGTGCTAG: 1.62 z-score
TTAGGACTGGAGTATCGGTTAGTGCTA: 5.16 z-score
GACGGTATCGGGGCTGGGGACGTGCTA: 0.979 z-score
TCACATTTCAATTAGAAACTGTGCTAG: 1.17 z-score
GACGGACTGGGGTATCGGGATGTGCTA: 0.24 z-score

Sample 3 — method: universal PBM; molecule type: double-stranded DNA, one strand shown; matrix: in vitro; tested at: not given; reading: higher = stronger binding; measurement: E-score
Target: Sal-like protein 4, full length isoform B (SALL4, Homo sapiens, UniProt Q9UJQ4-2, residues 1-616)
Notes: 8-mer, flanks averaged, mean of replicates
ACCGCGGA: -0.309
CCCATTCC: -0.249
AGTAGGTC: -0.158
ACACGTGT: 0.0762
CCTTCTCA: -0.0909
TCGCCAAA: -0.0448
CTGTAAGC: -0.0598
AATGTCCT: 0.154
GAACTTGC: -0.159
AGGAAGAG: -0.0752
GGTGGGGA: -0.138
ACGCAGGC: -0.141
ATTACCGC: 0.114
AGGGTATA: 0.274
ATGAGTGC: 0.177
CAGGCGAA: -0.104
GCCTGTCC: -0.204
CAGACATG: 0.0537
AGGTCGTC: -0.124
TACCTCGA: 0.0617
AAGCAACA: 0.0438
CCATGCGA: -0.0762
CTGAGGGC: -0.272

Sample 4 — organism: Saccharomyces cerevisiae; read-out: cell growth; method: competitive growth deep sequencing; molecule type: peptide; notes: peptide tiling library; together with: cyclin F-Cln2 fusion; reading: direction not given; measurement: enrichment score
VSRNLRSSLKSSLHTL: -1.38
RKLHFEDEVT: 3.55
GFGFLLFICKLTF: 1.31
LRRKLFLDGNGSIS: 1.81
PPTFLSTGEIHAFLSS: -0.252
PPKPLKKLRFDIEGSD: 0.928
SCCKRKLVVGNGPEGP: 0.51
NFETPEAETPIRSPFK: 0.27
RRVLCFDS: 2.07
LRRQLSFSED: 2.85
NNIRKALSFDNRGEEH: 0.489
DWDTVERQEEEAPSWD: 1.68
KVKRRLDLDIDGLQKE: 3.16
ARKRLELGNLGNPQ: 1.68
TTTTSPRTPPPLTVQD: 0.536
GAEELEDLVHFSVSEL: 1.97

Sample 5 — method: competition protein-binding microarray; molecule type: double-stranded DNA, one strand shown; matrix: in vitro; tested at: 2 µM; together with: Cbf1 competitor, 0.05 µM; reading: higher = stronger binding; measurement: fluorescence intensity; all sequences stand within: … GTCTTGATTCGCTTGACGCTGCTG
Target: Phosphate system positive regulatory protein PHO4, full length, GST-tagged (PHO4, Saccharomyces cerevisiae, UniProt P07270, residues 1-312)
Notes: whole 60-bp probe, lowest competitor level
Construct (chain): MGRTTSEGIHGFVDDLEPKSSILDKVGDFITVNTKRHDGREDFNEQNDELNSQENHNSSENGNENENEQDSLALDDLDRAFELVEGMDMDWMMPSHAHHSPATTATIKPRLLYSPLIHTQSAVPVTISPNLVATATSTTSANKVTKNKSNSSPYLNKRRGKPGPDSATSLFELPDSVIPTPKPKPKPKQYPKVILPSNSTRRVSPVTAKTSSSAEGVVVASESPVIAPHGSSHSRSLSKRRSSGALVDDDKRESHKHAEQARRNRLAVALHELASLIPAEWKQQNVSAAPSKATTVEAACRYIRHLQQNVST
ACCTTTGGAACTCACCAGGTGATATATTCATCAGCA: 3980 a.u.
AAATTACTAAGTTGTCACGTAACTTACCCCGTATGA: 4240 a.u.
CGTCCTAGTGATTGCAACGTGGGTGCCATGAGGAAG: 14400 a.u.
CTAACGAAGGTTTGTTACGTGGGTGACAAGCCAAGT: 6330 a.u.
GATAATTGAGTGTGTTCGTCATAATTTTTAATAAGG: 5530 a.u.
GATGGAGGATGCCCCCATGTGCTGATTCTCCCCGTA: 11800 a.u.
GATGATGACAAATTCAGCGTGAGGACATCAACTCCC: 3930 a.u.
TTCTGAATATGCGGCCACGTGTGGAATGATGTCCTG: 14800 a.u.
CTTTCCCGATCTTGCGGTGTGGGTGTAGCACATTTG: 5920 a.u.
TTTTTTGAGACTTACCTCGTGTTGGTGTCTCCCTGG: 9160 a.u.
CCTTCGTTGTTATCGTCCGTGTCGGTATCCACTTCC: 4990 a.u.
CACTATCCATCCTGGCACGTGTTCCTGGCCACCTTG: 19400 a.u.
CTTTCCCGATCTTGGGAGGTGGGTGTAGCACATTTG: 4800 a.u.
CGGATCGCGCTGACGCACGCTGCGTTTACCAAACTT: 7710 a.u.
ATGCTAAGAGATACGCTCGTGATGGCTTGGCGCAAT: 8070 a.u.
GTCTTATGTGGGTTAAACGTGGGACGAGAACTATAA: 12300 a.u.
TCGAACAGCCAAGTTTGCGTGGTTACAAGATAAAAT: 5700 a.u.
TTTGGAAATGCTCACCACGGGAATATGCAAAAAAAA: 6610 a.u.
TAACAGCAATTGCACCACATGCAAGTCTCATATGCA: 8760 a.u.
GCTGCTAACGATCAACACCTGACCGAGATAACAGCA: 4050 a.u.
GTCTTGTCTCATTGTAGTGTGGGTGTCCCCACTTCA: 5050 a.u.
CTGGAAGAGACCCACCATGTGGGATAGATCCCTGTA: 9970 a.u.

Some of these lines once more (sample 1):
GUCCCUGGUGGCUUCUGGAGGGAAGCUGUACCUCUAGAUACAUUUUUCUUUUCCUUCAGAGACCGUGACAGAGGGAGCUCUGUCAGCCGGAAGUUCAGGCCACCAGACGU: 0.254
CCUAUGUCCCAGCUGUCAGGGGCUCAGGGAAUCCUACCCAGCCACCUGUCCUGGGAUGGAGUGUCAGCAUCCACCCCUUGGUUGUCAUCGAGGCCGCCCUCCCAGUCCUG: 0.482
UGCAGAUGCUGUGAGAGUCUGGGGAAAGAUCACAUGGGUCGAGGGUUUCUCUACUGGUCAGGAUGCUUUUCUCAUAAGGGUCGACUUUUUUCACCAGUCACAUAAACACU: 0.323
GCCCAUGGGAUAUGUGGUGUAUAUCCUUCCAAAAAAUUAAAACGAAAAUAAAGUAGCUGCGAUUGGGUAUGUGUUUCCUGGGUUAGGGGAAGGACUCUGCCCUAUUGAGG: 1.14
GCAUAAGGGCUUUCAAAAAUUAAGUCUGUCCAGUAGAGUGAUUUUGCUUUCAUUAUUACCAAGUCAAGAGUACAACAGAGCUAGUGAACCGUAGCAGCAUGCGAAGCAGG: 4.08
UACAAACAUUUGUAUGACGUGAAUAGUUGAUGGCAUUUUUUUGUCAUGAAAAAAAUAAUGUAAAUCACAGACUUUUGCCAAAGCUCUUAUUUUUUUUCCUAAAUCUCUCC: 0.833
GACUUUCAUGUGGUAAAUAUGCAUUUGGUCUGUACUGAUCAUGGAAUAAACACAUCUCUCUUUUUUAUGCUGCUGUCUCCCUGAAAUUUCUUUGUGAAGCAACUAGGUAU: 0.567
